Results collected from several papers.
Lines come from different studies, so protocols differ. Several values in a cell are separate wells, animals, samples, runs or records. ± gives the spread as reported.
Organism: HIV-1

Compound	test	system	conditions	IC50
COc1ccc2c(c1)OCCCCCCCN(C[C@@H](O)[C@H](Cc1ccccc1)NC(=O)O[C@H]1CO[C@H]3OCC[C@H]31)S2(=O)=O	viral replication, MTT	MT-2 cells, LAI		0.023 µM
CC(C)C[C@H](NC(=O)[C@@H](NC(=O)[C@@H]1CCCN1C(=O)[C@@H](NC(=O)[C@H](CO)NC(=O)[C@@H](NC(=O)[C@H](CCC(N)=O)NC(=O)[C@@H]1CCCN1C(=O)[C@@H](NC(=O)[C@H](CCCCN)NC(=O)[C@H](CCCCN)NC(=O)[C@@H](NC(=O)[C@H](Cc1ccc(O)cc1)NC(=O)[C@H](CCCNC(=N)N)NC(=O)[C@@H](NC(=O)[C@@H](N)CC(C)C)C(C)C)[C@@H](C)O)C(C)C)C(C)C)[C@@H](C)O)[C@@H](C)O)C(=O)O	viral replication, inhibitor, β-galactosidase reporter	TZM-bl, NL4-3, CXCR4-tropic	3 days	5.92 ± 2.49 µM
c1nc2c(NCc3cn(CCCNCCCNC4CCCCC4)nn3)nc(N3CCNCC3)nc2[nH]1	viral replication, inhibitor	TZM-bl, IIIB		0.0036 µM
O=S(=O)([O-])[O-].O=S(=O)([O-])[O-].[O]=[V+2].[O]=[V+2].c1cc(CN2CCCNCCNCCCNCC2)ccc1CN1CCCNCCNCCCNCC1	viral cytopathic effect	MT4 cells, IIIB		1.15 µM and 1.57 µM
C=C(C)[C@@H]1CC[C@]2(C(=O)OCCOCCOCCOCCO)CC[C@]3(C)[C@H](CC[C@@H]4[C@@]5(C)CC[C@H](O)C(C)(C)[C@@H]5CC[C@]43C)[C@@H]12	viral replication, measured: p24	MT4, NL4-3	96 h	> 10 µM
COc1ccc2c(c1)OCCCC/C=C\CN(C[C@@H](O)[C@H](Cc1ccccc1)NC(=O)O[C@H]1CO[C@H]3OCC[C@H]31)S2(=O)=O	viral replication, MTT	MT-2 cells, LAI		0.014 µM
C=C(C)[C@@H]1CC[C@]2(C(=O)OCCCCCCCC)CC[C@]3(C)[C@H](CC[C@@H]4[C@@]5(C)CC[C@H](O)C(C)(C)[C@@H]5CC[C@]43C)[C@@H]12	viral replication, measured: p24	MT4, NL4-3	96 h	> 10 µM
COc1ccccc1NC(=O)c1ccccc1OCc1ccc(C#N)cc1	viral replication, measured: reverse transcriptase activity	MT-4, LAI	7 d	22.8 µM
CC[C@H](C)[C@H](N)C(=O)N[C@@H](CC(C)C)C(=O)N[C@@H](CCCNC(=N)N)C(=O)N[C@@H](Cc1c[nH]c2ccccc12)C(=O)N[C@@H](CO)C(=O)N[C@@H](CCCNC(=N)N)C(=O)N[C@@H](CCCCN)C(=O)N[C@@H](CCSC)C(=O)N1CCC[C@H]1C(=O)N[C@@H](CS)C(=O)N[C@@H](CCSC)C(=O)N[C@@H](CO)C(=O)O	viral replication, inhibitor, β-galactosidase reporter	TZM-bl, NL4-3, CXCR4-tropic	3 days	0.121 ± 0.023 µM
C=C(C)[C@@H]1CC[C@]2(C(=O)N3CCC(CCCC(=O)NCCN4CCOCC4)CC3)CC[C@]3(C)[C@H](CC[C@@H]4[C@@]5(C)CC[C@H](O)C(C)(C)[C@@H]5CC[C@]43C)[C@@H]12	viral replication, measured: p24	MT4, NL4-3	96 h	> 10 µM
CN(C)CCCn1c(=O)c2cc(Br)c3c(=O)n(CCCN(C)C)c(=O)c4c5[nH]c6ccccc6[nH]c5c(c1=O)c2c34	viral replication, LTR luciferase reporter	TZM-bl, BaL	48 h	< 0.04 µM
C=C(C)[C@@H]1CC[C@]2(C(=O)OCCCc3ccccc3)CC[C@]3(C)[C@H](CC[C@@H]4[C@@]5(C)CC[C@H](O)C(C)(C)[C@@H]5CC[C@]43C)[C@@H]12	viral replication, measured: p24	MT4, NL4-3	96 h	> 10 µM
COc1cc(-c2oc3cc(O)cc(O)c3c(=O)c2O)ccc1O	viral replication	TZM-bl, NL4-3, CXCR4-tropic	48 h	1.67 µM

A few entries again:
Compound	test	system	conditions	IC50
COc1ccccc1NC(=O)c1ccccc1OCc1ccc(C#N)cc1	viral replication, measured: reverse transcriptase activity	MT-4, LAI	7 d	22.8 µM
